Measurements pooled from the literature.
Parts stem from different laboratories: compare values within a part only.

Series 1 — technique: RNA Bind-n-Seq; molecule type: RNA; medium: in vitro; tested at: 200 nM; notes: whole 134-nt RNA, ends assumed; together with: 150 mM LiCl; baseline: input library; reading: higher = stronger binding; measurement: log2 enrichment; all molecules: 7-deaza-guanosine replaces G
Target: Fragile X messenger ribonucleoprotein 1, C-terminal low-complexity region (Fmr1, Mus musculus, UniProt P35922)
GGGAGUUCUACAGUCCGACGAUCUUCUCUCUCUCCCUUUGCAGCCGCUGUACAACCAGCCCUCCGACACCCGGCAGUAUCAUGAGAACAUCAAAAUGUGAGUGCUCGCGGGCAUGGAAUUCUCGGGUGUCAAGG: 0.923
GGGAGUUCUACAGUCCGACGAUCGUAAGUGUGGCAAUGUGAACUGAAGCUGAUGGGCUGAGAACAUGGACUGAGCUUGUGGUGUGCUUUGCAGGAGGACUUGAAGCAGAGUUCUGGAAUUCUCGGGUGUCAAGG: 1.49
GGGAGUUCUACAGUCCGACGAUCCACAGACAACACGCACCCACACAGACACAGAGGGAAGGGGUUGGGAUGGGGACAGGGUGCACAGCAGGGCGGGGUAGGACCCCAGCGCCUUGGAAUUCUCGGGUGUCAAGG: -1.02

Series 2 — technique: protein-binding microarray; molecule type: double-stranded DNA, one strand shown; medium: in vitro; tested at: 0.8 µM; notes: whole 60-bp probe, no competitor; reading: higher = stronger binding; measurement: fluorescence intensity
Target: Centromere-binding protein 1, full length, N-terminal tag (CBF1, Saccharomyces cerevisiae, UniProt P17106, residues 1-351)
Chain of UniProt P17106 (whole entry, looked up): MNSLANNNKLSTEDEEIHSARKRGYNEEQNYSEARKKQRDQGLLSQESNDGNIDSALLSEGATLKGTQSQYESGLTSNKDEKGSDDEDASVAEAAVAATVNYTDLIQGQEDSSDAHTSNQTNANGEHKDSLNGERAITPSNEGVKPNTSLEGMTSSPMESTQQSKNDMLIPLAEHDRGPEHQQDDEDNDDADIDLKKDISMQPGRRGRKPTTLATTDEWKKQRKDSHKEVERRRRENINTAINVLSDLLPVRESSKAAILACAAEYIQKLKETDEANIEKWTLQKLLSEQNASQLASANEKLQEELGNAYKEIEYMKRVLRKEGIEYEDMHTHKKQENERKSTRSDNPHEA
GAATCTGTGCTTACTCACGTGAAAGAGAGGGAATAGGTCTTGATTCGCTTGACGCTGCTG: 3300 a.u.
GAACAAGAAATGATCAACTGAATAAAATAACGATAGGTCTTGATTCGCTTGACGCTGCTG: 556 a.u.
CTAATGTCAAAAAATCTCGTGAGACCTCCGGAATTCGTCTTGATTCGCTTGACGCTGCTG: 621 a.u.
CTAGCCGATAATTTTCACATGGATGAGTCGCAGTTCGTCTTGATTCGCTTGACGCTGCTG: 578 a.u.

Series 3 — technique: protein-binding microarray; molecule type: double-stranded DNA, one strand shown; medium: in vitro; tested at: 250 nM; notes: 60-bp whole probe; together with: salmon DNA 0.4 mg/ml; baseline: random background probes; reading: higher = stronger binding; measurement: log fluorescence
Target: Interferon regulatory factor 5, full length, phosphomimetic (IRF5, Homo sapiens, UniProt Q13568-2, residues 1-514, K96S/S451D/S453D/S456D/S462D)
GCCTAGCACTTAGGCTTCGGTTTCGGTTAGTGCTAGGTCTTGATTCGCTTGACGCTGCTG: 9.33 z-score
GCCTAGCACTCAGGTTTCCTTCTCCTTTAGTGCTAGGTCTTGATTCGCTTGACGCTGCTG: 1.2 z-score
GCCTAGCACTTAGGTCTCGGTATAGGTTAGTGCTAGGTCTTGATTCGCTTGACGCTGCTG: 0.621 z-score
GCCTAGCACTTTTTTTCATATATATATGAGTGCTAGGTCTTGATTCGCTTGACGCTGCTG: 2.33 z-score

Further values, each from its own experiment
PhoQ, residues 284 288 289 292 302 303 SLSVQF — fold induction (PhoP, residues 12 14 15 18 19 LHTVM (Escherichia coli, UniProt P23836); Sort-seq, item: YFP reporter; E. coli; PhoQ-PhoP variant library, together with: 10 µM Mg2+; baseline: high Mg2+ state, higher = stronger signaling): 1.82

Some of these lines once more (series 2):
CTAATGTCAAAAAATCTCGTGAGACCTCCGGAATTCGTCTTGATTCGCTTGACGCTGCTG: 621 a.u.
CTAGCCGATAATTTTCACATGGATGAGTCGCAGTTCGTCTTGATTCGCTTGACGCTGCTG: 578 a.u.
